# Published values gathered from unrelated publications.
# Each line is one published result; not all experiments were run side by side. Values joined by “and” are separate records of one study, mostly repeats; a detail may differ. ± gives the spread as reported.
SMILES,cell line,assay,setting,how to read,quantity,value
CC(c1ccccc1)(c1ccc(O)cc1)c1ccc(O)cc1,HepG2 spheroids,Hoechst flow cytometry,"1 µM, 24 h",,G2 phase cells,19.4 ± 2.18%
Cn1cncc1C1=CN(c2ncnc3[nH]cnc23)CCS1,OVCAR-5,,ovarian cancer,,CC50,> 200 µM
CN1CCN(C2(CNC3CCN(c4cccc(-c5cc6cc(F)ccc6[nH]5)c4)CC3)CCC2)CC1,KM12,,,,CC50,6.05 µM
CC1(C(=O)O)C2CCC(O2)C1(C)C(=O)O (centres unmarked),HEK293T ATF4-FLuc reporter,"ATF4 reporter gene, activator, luciferase reporter",,,EC50,> 9.96 µM
O=c1cc(-c2ccccc2)oc2c(O)c(O)ccc12,SH-SY5Y Aβ-GFP cells,Aβ folding,1 to 5 µM,reference: untreated induced cells,GFP fluorescence,116 to 127%
COc1ccc2c(c1)[nH]c1c(C)nccc12,DU-145,"bisulfite pyrosequencing, measured: RASSF1A promoter CpG site 3",concentration not given,reference: vehicle,methylation reduction,0%
Cc1cnc2ccc3c(nc(N)n3C)c2n1,BALB/c 3T3,colony forming efficiency,0.5 µM,,colony number,87 colonies per plate and 101 colonies per plate and 99 colonies per plate
Cc1c(O)c(O)cc2c1CC=C1[C@@]2(C)CC[C@@]2(C)[C@@H]3C[C@](C)(C(=O)O)CC[C@]3(C)CC[C@]12C,human iPSC cardiomyocytes,plate-normalised,"concentration not given, hit retest","reference: vehicle controls, SDs below control",MyBP-C level change,14.1 SD
COc1c(C)c2c(c(O)c1C/C=C(\C)CCC(=O)O)C(=O)OC2,EFO-21,cell proliferation,,,IC50,1.17 µM
Cc1[nH]c2ccccc2c1-c1csc(-c2c[nH]c3ccccc23)n1,primary human keratinocyte raft cultures,qPCR,"10 µM, 14, 16 and 18 days",reference: DMSO,HPV18 DNA level,≤ 1%
COC(=O)/C(C)=C\C[C@@]12OC(C)(C)[C@@H]3C[C@@H](C=C4C(=O)c5c(O)c6c(c(CC=C(C)C)c5O[C@]431)O[C@](C)(CCC=C(C)C)C=C6)C2=O,human iPSC cardiomyocytes,plate-normalised,"concentration not given, hit retest","reference: vehicle controls, SDs below control",MyBP-C level change,17.2 SD
Cc1cc(C(C)(C)c2ccc(O)c(C)c2)ccc1O,HepG2 spheroids,planimetry,"160 µM, 96 h",reference: solvent control,spheroid surface area,1.35 fold
C/C=C(/C)C(=O)O[C@H]1C(C)=C2[C@H]([C@@H]1OC(=O)CCCCCCC)[C@@](C)(OC(C)=O)C[C@H](OC(=O)CCC)[C@@]1(O)[C@H]2OC(=O)[C@@]1(C)O,HEK-293T,"RNA-seq GSEA, measured: Hallmark glycolysis","500 nM, 6 h",direction not given,normalized enrichment score,1.95
COc1c(CCC[P+](c2ccccc2)(c2ccccc2)c2ccccc2)cc2c(c1OC)OCO2.[I-],TK-10,SRB,,,TGI,-4.46 log M
C[C@H]1O[C@@H](O[C@H]2[C@@H](O)C[C@H](O[C@H]3[C@@H](O)C[C@H](O[C@H]4CC[C@@]5(C)[C@H](CC[C@@H]6[C@@H]5C[C@@H](O)[C@]5(C)[C@@H](C7=CC(=O)OC7)CC[C@]65O)C4)O[C@@H]3C)O[C@@H]2C)C[C@H](O)[C@@H]1O,ReNcell VM,YO-PRO-1 staining,24 h,,lowest concentration increasing apoptotic cells,≤ 0.39 µM
O=C(Nc1ccc2[nH]nc(-c3ccncc3)c2c1)[C@@H]1CCN(CC(=O)N2CCN(c3ccc(-c4ncccn4)cc3)CC2)C1,HCT116,IncuCyte,"concentration not given, 32 (unit not given)",,PI-positive cells,9.92 count and 10.1 count
CC(C)(C)C(=O)C(Oc1ccc(Cl)cc1)n1cncn1 (centres unmarked),THP-1,pyroptotic LDH release,"2 µM, 40 min, added: LPS then nigericin",,inhibition,-2.41%
C[C@]12CC[C@H](O)C[C@H]1CC[C@@H]1[C@@H]2CC[C@]2(C)[C@@H](c3ccc(=O)oc3)CC[C@]12O,MCF7,"RT-qPCR, measured: GREB1","20 nM, 48 h, without estradiol, unit not given",reference: untreated,mRNA level,0.585 and 0.544 and 0.622
O=C1N(Cc2ccccc2Cl)c2ccccc2C12NN=C(c1ccccc1)S2 (centres unmarked),MDA-MB-468,"gene expression array, measured: GNG10 mRNA","10 µM, 12 h","reference: untreated, down",fold change,1.61
COc1cc(CCC[P+](c2ccccc2)(c2ccccc2)c2ccccc2)c(OC)c2c1OCO2.[I-],KM12,SRB,,,GI50,-6.08 log M
CN(C)C(=O)c1cc2cnc(Nc3ccc(N4CCNCC4)cn3)nc2n1C1CCCC1,patient-derived GBM lines,cell viability,72 h,,EC50,1 to 2.8 µM
Cc1nn(-c2nc3c(F)cc(F)cc3s2)c(O)c1C(c1ccc(C(F)(F)F)cc1)c1c(C)nn(-c2nc3c(F)cc(F)cc3s2)c1O,RAW-ISG,CCK-8,3.125 µM,,viability,104% and 106% and 107%
Cc1sc2c(c1C)C(c1ccc(Cl)cc1)=N[C@@H](CC(=O)OC(C)(C)C)c1nnc(C)n1-2,iCas9-MOLM-13 sgGFP,"RNA-seq, measured: PRTN3","50 nM, 24 h",reference: DMSO,log2 fold change,0.298
Nc1ncnc2c1ncn2[C@@H]1O[C@@H]2COP(=O)(O)O[C@H]3[C@@H](O)[C@H](n4cnc5c(=O)[nH]cnc54)O[C@@H]3COP(=O)(O)O[C@H]2[C@H]1O,HFF-1,"RNA sequencing, measured: ER-Phagosome pathway",upregulated pathway,reference: Zika virus alone,pathway fold enrichment,6.12
Oc1cc(Cl)ccc1Oc1ccc(Cl)cc1Cl,HepG2,"high content imaging, measured: cell count","24 h, distribution mode 1",,point of departure,5.13 µM
CC[C@H]1CN2CC[C@H]1C[C@@H]2[C@@H](O)c1ccnc2ccc(OC)cc12,THP-1,pyroptotic LDH release,"2 µM, 40 min, added: LPS then nigericin",,inhibition,-0.255%
Oc1ccc(C2(c3ccc(O)cc3)c3ccccc3-c3ccccc32)cc1,HepG2 spheroids,Hoechst flow cytometry,"40 µM, 24 h",,G2 phase cells,18.8 ± 3.13%
CN(C)c1cc(NC(=O)CNC(C)(C)C)c(O)c2c1C[C@H]1C[C@H]3[C@H](N(C)C)C(O)=C(C(N)=O)C(=O)[C@@]3(O)C(O)=C1C2=O,Escherichia coli DH5α expressing KPC-180,bacterial growth,,,MIC,0.125 mg/L
Cc1ccccc1CN1CCN(CCOC(c2ccccc2)c2ccccc2Cl)CC1 (centres unmarked),HEK293T ATF4-FLuc reporter,"ATF4 reporter gene, activator, luciferase reporter",,,EC50,0.051 µM
O=C1CCP(=S)(c2ccccc2)CC1,SW-620,MTT,72 h,reference: IC50 HaCaT over IC50 SW-620,selectivity index,2.2
COc1cccc2c1C(=O)c1c(O)c3c(c(O)c1C2=O)C[C@@](O)(C(=O)CO)C[C@@H]3O[C@H]1C[C@H](N)[C@H](O)[C@H](C)O1,HCT-116 p53-/-,MTT,concentration not given,reference: p53-/- over parental cells,fold difference in cytotoxicity,2 fold
C[C@@H]1C[C@@H]([C@H](O)CC2CC(=O)NC(=O)C2)C(=O)[C@@H](C)C1,MDA-MB-231 BAX/BAK siRNA knockdown,CellTiter-Glo,concentration not given,reference: normalised luminescence,viability,16.2% and 13.5%
N[C@@H]1CN2CCC1CC2,THP-1,pyroptotic LDH release,"2 µM, 40 min, added: LPS then nigericin",,inhibition,8.85%
CN1CCc2[nH]c(-c3ccnc(NC(=O)[C@@H](CC(F)F)c4ccc(F)cc4)c3)c(Nc3ccccc3)c2C1=O,MOLM-13,"mRNA level, RNA-seq, measured: TRIB3","200 nM, 24 h",reference: DMSO,log2 fold change,-3.31
CCN(CC)c1ccc(C=NNC(=O)CSc2nc3ccccc3c(=O)n2Cc2ccc(S(N)(=O)=O)cc2)c(O)c1,TK-10,NCI five-dose screen,,,CC50,> 100 µM
CC(C)N1CCC(NC2CCN(c3cccc(-c4cc5cc(F)ccc5[nH]4)c3)CC2)CC1,OVCAR-5,,,,CC50,7.64 µM
O=C(O)c1cc(-c2ccc(Br)cc2)nc2ccc(Cl)cc12,Huh-7,MTT,,reference: CC50 over IC50,selectivity index,1.49
Oc1ccc(C(c2ccc(O)cc2)(C(F)(F)F)C(F)(F)F)cc1,HepG2 spheroids,Hoechst flow cytometry,"40 µM, 24 h",,G1 phase cells,69.5 ± 3.11%

# A few entries again:
SMILES,cell line,assay,setting,how to read,quantity,value
COc1cccc2c1C(=O)c1c(O)c3c(c(O)c1C2=O)C[C@@](O)(C(=O)CO)C[C@@H]3O[C@H]1C[C@H](N)[C@H](O)[C@H](C)O1,HCT-116 p53-/-,MTT,concentration not given,reference: p53-/- over parental cells,fold difference in cytotoxicity,2 fold
C[C@@H]1C[C@@H]([C@H](O)CC2CC(=O)NC(=O)C2)C(=O)[C@@H](C)C1,MDA-MB-231 BAX/BAK siRNA knockdown,CellTiter-Glo,concentration not given,reference: normalised luminescence,viability,16.2% and 13.5%
